Assay results collected from several papers.
A part holds a random share of what one study measured. Values joined by “and” are separate records of one study, mostly repeats; a detail may differ.

Series 1
Species: mouse
Medium: microsomes or S9
Tested at: 2 µM
Time: 0.5 h
With CCOc1ccc(C(C)=O)cc1COc1ncnc2ccc(Br)cc12 the remaining compound was 3.18%.
COc1cc2c(cc1OC)CN(C(=O)COc1cn(C)c(C)cc1=O)[C@H](C(N)=O)C2 has a remaining compound of 91.5%.
For Cc1cc(N)cc(Br)c1OCc1ccccc1, the remaining compound was 5.55%.
COc1ccc(C#Cc2nc3ccc(C)cc3o2)cc1 has a remaining compound of 49.3%.
Cc1cc(C)c(N(C)S(=O)(=O)c2ccc3c(c2)C(=O)Nc2ccc(C)cc2O3)c(C)c1 gave a remaining compound of 98.5%.

Series 2
Target: Tyrosine-protein kinase JAK2 (JAK2, Homo sapiens, UniProt O60674)
Sequence of UniProt O60674 (whole entry, looked up): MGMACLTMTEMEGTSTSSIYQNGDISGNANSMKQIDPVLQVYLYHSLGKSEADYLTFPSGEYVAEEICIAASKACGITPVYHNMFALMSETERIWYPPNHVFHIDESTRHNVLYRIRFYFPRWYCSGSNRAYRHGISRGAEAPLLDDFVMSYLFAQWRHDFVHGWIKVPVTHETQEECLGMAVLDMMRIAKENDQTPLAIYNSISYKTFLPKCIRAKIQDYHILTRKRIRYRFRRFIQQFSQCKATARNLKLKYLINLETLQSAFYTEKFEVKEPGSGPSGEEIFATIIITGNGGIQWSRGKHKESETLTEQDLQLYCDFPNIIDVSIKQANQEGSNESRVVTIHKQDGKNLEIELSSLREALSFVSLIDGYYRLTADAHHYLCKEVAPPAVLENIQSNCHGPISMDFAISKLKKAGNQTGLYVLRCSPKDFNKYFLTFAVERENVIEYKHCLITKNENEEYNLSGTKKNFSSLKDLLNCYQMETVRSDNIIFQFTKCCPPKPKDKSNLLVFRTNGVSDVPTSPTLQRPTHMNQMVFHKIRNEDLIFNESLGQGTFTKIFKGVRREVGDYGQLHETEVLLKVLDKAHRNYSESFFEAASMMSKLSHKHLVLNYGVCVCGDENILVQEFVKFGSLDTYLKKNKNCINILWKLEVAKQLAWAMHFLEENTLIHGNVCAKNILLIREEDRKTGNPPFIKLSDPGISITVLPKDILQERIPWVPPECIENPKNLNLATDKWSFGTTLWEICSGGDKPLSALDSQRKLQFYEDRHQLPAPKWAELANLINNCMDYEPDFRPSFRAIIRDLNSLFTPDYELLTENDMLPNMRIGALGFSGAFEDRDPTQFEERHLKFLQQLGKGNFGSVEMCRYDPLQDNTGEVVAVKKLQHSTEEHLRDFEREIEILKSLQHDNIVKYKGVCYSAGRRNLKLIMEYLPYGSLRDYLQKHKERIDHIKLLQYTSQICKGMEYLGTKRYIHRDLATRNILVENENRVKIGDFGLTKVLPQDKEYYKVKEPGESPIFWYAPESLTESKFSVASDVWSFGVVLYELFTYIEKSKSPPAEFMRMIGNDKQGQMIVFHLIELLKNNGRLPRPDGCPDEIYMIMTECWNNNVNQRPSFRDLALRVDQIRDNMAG
Effect on: enzyme activity
Mode: inhibitor
Tested at: 0.5 µM
Relative to: control
Oc1ccc(-c2nc(-c3ccncc3)c(-c3ccc(F)cc3)[nH]2)cc1 gave a remaining activity of 96.2%.
NCCNc1ncc(C(N)=O)c(Nc2cccc(C(F)(F)F)c2)n1 has a remaining activity of 96.7%.
With COc1cc2ncnc(Nc3ccc(F)c(Cl)c3)c2cc1OCCCN1CCOCC1 the remaining activity was 99.8%.
O=c1c2ccccc2[nH]c(=S)n1CCN1CCC(=C(c2ccc(F)cc2)c2ccc(F)cc2)CC1 has a remaining activity of 92%.
Cn1sc(=O)n(Cc2ccccc2)c1=O gave a remaining activity of 91.6%.
With COc1ccc(CNC(=O)Nc2ncc([N+](=O)[O-])s2)cc1 the remaining activity was 104%.
O=C(CCCc1ccc(-c2ccccc2F)cc1)Nc1ccc(O)cc1 has a remaining activity of 98.5%.
COc1ccc(C(=O)Nc2sc3c(c2C(N)=O)CCCC3)cc1OC has a remaining activity of 99.9%.
For COc1cc2nccc(Oc3ccc(NC(=S)NC(=O)c4ccccc4C)cc3)c2cc1OC, the remaining activity was 97.7%.
The remaining activity of CO[C@H]1C[C@@H]2CC[C@@H](C)[C@@](O)(O2)C(=O)C(=O)N2CCCC[C@H]2C(=O)O[C@H]([C@H](C)C[C@@H]2CC[C@@H](O)[C@H](OC)C2)CC(=O)[C@H](C)/C=C(\C)[C@@H](O)[C@@H](OC)C(=O)[C@H](C)C[C@H](C)/C=C/C=C/C=C/1C is reported as 97.5%.
With O=C(Nc1cccc(Nc2cc(Nc3cccc(C(F)(F)F)c3)ncn2)c1)C1CC1 the remaining activity was 99.5%.
For Cc1ccc(Nc2nccc(N(C)c3ccc4c(C)n(C)nc4c3)n2)cc1S(N)(=O)=O, the remaining activity was 101%.
CC(C)[C@H](CO)Nc1nc(Nc2cc(N)cc(Cl)c2)c2ncn(C(C)C)c2n1 gave a remaining activity of 100%.

Series 3
SMILES: CNC(=O)Nc1ccc2c(c1)C1(CC2)OC(=O)N(CC(=O)N(Cc2ccc(F)cc2)[C@@H](C)C(F)(F)F)C1=O (single isomer, unassigned)
Tested at: 0.1 µM
Relative to: DMSO
The viability was 121% (sample B colorectal tumour organoid).
The viability was 115% (sample B colorectal tumour organoid; replicate 1).
sample BA colorectal tumour organoid — viability: 102%.

Series 4
Effect on: AlphaScreen signal
Method: AlphaScreen counter screen
Medium: His6 peptide without bromodomain
Tested at: 50 µM
Setting: assay interference check
S=C(NCc1ccc2c(c1)OCO2)N1CCN(c2ncnc3c2oc2ccccc23)CC1 has an inhibition of 29.7%.
With COc1cc2ncnc(Nc3ccc(F)c(Cl)c3)c2cc1OCCCN1CCOCC1 the inhibition was 20.1%.
Cc1ccc(F)c(NC(=O)Nc2ccc(-c3cccc4[nH]nc(N)c34)cc2)c1 has an inhibition of 66.4%.
The inhibition of O=S(=O)(O)c1cccc(NN=Nc2ccc(Br)cc2)c1 is reported as 18.8%.
With Cc1ccc(NS(=O)(=O)c2cc(C(=O)O)c(Cl)cc2Cl)c(O)c1 the inhibition was 15.7%.

Series 5
Structure (SMILES): COc1ccc(-c2c(Nc3ccccn3)[nH]c3c(C4=CCCCC4)c(-c4ccccc4)nn3c2=O)cc1
Species: human
Medium: plasma
Route: oral
LC-MS/MS non-compartmental; 200 mg twice daily, cycle 1 — AUC(all): 234 µg·h/mL.
It gave 34.9 µg·h/mL and 33 µg·h/mL for AUC(all) (LC-MS/MS; 50 mg once daily).
200 mg twice daily — AUC(all): 255 µg·h/mL and 243 µg·h/mL.
LC-MS/MS non-compartmental; 50 mg once daily, cycle 1 — AUC(all): 32.3 µg·h/mL.

Repeated from above (series 4):
S=C(NCc1ccc2c(c1)OCO2)N1CCN(c2ncnc3c2oc2ccccc23)CC1 has an inhibition of 29.7%.
With COc1cc2ncnc(Nc3ccc(F)c(Cl)c3)c2cc1OCCCN1CCOCC1 the inhibition was 20.1%.
Cc1ccc(F)c(NC(=O)Nc2ccc(-c3cccc4[nH]nc(N)c34)cc2)c1 has an inhibition of 66.4%.
The inhibition of O=S(=O)(O)c1cccc(NN=Nc2ccc(Br)cc2)c1 is reported as 18.8%.
